# Assay results pooled from the literature.
# Numbered parts are unrelated; each lists some results of a single study.
# Sequence of UniProt Q5XXA6 (whole entry, unmodified, looked up): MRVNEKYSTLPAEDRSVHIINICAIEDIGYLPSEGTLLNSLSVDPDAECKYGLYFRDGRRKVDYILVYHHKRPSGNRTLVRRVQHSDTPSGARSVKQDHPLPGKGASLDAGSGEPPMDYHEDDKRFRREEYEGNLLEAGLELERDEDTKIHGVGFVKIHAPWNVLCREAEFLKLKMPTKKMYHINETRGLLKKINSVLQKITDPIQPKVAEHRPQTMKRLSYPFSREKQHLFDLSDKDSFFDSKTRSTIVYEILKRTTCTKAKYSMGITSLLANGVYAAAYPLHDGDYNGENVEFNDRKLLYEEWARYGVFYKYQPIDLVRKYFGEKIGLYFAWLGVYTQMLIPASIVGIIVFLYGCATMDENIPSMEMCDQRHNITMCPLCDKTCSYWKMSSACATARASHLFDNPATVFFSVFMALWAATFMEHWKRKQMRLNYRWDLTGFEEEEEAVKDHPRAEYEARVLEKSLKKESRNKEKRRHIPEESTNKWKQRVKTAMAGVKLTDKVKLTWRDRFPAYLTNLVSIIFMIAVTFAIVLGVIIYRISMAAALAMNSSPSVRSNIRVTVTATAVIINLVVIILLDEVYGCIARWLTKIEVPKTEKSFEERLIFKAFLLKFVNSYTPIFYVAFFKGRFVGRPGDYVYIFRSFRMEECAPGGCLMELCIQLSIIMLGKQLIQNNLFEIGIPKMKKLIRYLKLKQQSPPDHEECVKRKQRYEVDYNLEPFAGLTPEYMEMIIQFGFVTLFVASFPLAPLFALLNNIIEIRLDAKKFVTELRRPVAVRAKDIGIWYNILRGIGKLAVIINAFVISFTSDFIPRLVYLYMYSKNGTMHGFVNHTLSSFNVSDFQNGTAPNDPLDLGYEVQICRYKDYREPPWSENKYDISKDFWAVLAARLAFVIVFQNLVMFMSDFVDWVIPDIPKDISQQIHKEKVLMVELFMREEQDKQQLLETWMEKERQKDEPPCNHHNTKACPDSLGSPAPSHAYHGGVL
# Sequence of UniProt Q7KZI7 (whole entry, looked up): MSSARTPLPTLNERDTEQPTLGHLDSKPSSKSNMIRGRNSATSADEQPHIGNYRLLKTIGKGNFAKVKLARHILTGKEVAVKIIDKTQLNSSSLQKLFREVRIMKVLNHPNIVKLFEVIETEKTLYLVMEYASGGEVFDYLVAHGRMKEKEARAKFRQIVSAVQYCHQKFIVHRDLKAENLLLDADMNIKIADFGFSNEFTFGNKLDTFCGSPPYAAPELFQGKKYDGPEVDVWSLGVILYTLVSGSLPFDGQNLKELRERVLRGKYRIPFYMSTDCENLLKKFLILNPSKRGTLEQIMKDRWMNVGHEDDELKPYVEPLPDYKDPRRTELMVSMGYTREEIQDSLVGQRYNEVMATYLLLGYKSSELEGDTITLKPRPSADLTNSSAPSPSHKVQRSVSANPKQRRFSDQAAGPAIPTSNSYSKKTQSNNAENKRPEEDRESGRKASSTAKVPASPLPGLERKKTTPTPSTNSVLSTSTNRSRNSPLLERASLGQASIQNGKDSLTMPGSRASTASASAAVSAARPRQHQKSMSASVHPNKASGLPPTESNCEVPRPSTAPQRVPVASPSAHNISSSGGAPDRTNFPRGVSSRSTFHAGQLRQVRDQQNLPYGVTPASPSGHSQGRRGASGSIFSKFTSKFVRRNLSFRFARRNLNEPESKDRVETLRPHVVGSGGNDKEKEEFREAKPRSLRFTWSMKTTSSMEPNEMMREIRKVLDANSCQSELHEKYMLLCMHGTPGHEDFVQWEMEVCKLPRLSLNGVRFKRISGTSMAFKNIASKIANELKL
# Sequence of UniProt Q9NQU5 (whole entry, looked up): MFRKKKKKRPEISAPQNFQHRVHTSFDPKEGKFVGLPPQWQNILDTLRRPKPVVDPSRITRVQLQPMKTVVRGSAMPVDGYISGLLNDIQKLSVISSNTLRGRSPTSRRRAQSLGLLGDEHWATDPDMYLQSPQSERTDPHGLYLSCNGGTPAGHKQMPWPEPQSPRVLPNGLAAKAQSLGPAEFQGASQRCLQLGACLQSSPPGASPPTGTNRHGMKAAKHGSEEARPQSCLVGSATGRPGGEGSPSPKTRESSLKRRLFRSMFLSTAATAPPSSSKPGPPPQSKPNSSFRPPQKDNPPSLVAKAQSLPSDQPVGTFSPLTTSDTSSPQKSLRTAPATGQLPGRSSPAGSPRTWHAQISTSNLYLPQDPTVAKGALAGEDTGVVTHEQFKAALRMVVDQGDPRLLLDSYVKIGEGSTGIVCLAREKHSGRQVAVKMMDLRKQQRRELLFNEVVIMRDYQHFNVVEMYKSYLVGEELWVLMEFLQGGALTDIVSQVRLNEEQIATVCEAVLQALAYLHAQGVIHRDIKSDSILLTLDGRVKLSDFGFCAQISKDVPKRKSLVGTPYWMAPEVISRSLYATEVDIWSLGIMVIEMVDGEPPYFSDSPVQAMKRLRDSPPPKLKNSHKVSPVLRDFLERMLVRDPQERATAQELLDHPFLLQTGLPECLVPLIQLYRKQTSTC
# Sequence of UniProt Q06187 (whole entry, looked up): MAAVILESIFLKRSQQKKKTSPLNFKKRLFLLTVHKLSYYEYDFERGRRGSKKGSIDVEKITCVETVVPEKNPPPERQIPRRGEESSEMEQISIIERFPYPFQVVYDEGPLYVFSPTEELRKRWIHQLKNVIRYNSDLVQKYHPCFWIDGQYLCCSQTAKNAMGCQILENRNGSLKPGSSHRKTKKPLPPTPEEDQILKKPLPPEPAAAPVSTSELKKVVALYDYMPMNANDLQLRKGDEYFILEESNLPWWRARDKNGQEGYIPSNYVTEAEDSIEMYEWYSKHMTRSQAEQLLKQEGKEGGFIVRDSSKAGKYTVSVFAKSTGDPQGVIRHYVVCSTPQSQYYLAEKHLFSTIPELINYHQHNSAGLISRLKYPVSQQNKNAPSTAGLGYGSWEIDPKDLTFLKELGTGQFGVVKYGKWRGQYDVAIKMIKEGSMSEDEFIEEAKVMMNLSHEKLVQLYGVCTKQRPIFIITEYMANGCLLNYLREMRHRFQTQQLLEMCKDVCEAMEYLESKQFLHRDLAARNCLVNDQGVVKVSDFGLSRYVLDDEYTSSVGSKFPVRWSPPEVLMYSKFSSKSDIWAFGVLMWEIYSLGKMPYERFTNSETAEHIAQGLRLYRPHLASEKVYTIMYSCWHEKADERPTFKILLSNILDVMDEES
# Sequence of UniProt Q8TD08 (whole entry, looked up): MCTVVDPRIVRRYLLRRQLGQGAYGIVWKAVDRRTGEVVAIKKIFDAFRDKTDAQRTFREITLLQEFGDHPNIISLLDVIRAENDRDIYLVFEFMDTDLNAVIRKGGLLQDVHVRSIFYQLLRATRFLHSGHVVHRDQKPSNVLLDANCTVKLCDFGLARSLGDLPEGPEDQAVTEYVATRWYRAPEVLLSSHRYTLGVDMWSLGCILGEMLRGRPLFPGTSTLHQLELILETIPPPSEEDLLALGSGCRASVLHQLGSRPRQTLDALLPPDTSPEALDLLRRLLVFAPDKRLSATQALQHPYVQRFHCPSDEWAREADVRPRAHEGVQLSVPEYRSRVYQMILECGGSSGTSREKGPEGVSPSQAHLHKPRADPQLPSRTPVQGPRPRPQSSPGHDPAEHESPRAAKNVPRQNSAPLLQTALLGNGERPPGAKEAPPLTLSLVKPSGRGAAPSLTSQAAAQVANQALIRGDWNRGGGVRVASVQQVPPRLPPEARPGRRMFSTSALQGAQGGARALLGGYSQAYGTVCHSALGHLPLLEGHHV
# Sequence of UniProt Q9NWZ3 (whole entry, looked up): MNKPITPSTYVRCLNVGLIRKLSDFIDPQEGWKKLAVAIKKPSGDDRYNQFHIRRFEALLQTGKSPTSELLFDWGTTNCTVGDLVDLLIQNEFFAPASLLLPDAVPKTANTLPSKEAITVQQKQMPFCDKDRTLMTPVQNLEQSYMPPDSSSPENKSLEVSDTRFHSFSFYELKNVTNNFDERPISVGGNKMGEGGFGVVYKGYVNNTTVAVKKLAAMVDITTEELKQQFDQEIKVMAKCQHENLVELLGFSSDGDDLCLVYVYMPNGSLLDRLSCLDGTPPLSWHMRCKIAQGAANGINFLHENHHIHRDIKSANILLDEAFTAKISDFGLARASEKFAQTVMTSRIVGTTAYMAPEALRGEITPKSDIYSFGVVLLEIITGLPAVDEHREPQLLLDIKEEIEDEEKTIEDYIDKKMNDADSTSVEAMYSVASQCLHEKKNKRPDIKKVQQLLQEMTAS
# Sequence of UniProt Q00526 (whole entry, looked up): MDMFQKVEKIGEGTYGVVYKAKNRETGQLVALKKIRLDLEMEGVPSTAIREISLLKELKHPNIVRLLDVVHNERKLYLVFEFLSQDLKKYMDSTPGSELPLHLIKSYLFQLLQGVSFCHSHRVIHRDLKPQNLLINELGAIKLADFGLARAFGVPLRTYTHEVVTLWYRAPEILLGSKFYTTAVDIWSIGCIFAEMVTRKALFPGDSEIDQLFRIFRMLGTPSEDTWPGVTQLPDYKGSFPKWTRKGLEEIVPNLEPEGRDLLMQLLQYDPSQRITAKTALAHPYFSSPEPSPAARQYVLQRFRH
# Sequence of UniProt Q9BYT3 (whole entry, looked up): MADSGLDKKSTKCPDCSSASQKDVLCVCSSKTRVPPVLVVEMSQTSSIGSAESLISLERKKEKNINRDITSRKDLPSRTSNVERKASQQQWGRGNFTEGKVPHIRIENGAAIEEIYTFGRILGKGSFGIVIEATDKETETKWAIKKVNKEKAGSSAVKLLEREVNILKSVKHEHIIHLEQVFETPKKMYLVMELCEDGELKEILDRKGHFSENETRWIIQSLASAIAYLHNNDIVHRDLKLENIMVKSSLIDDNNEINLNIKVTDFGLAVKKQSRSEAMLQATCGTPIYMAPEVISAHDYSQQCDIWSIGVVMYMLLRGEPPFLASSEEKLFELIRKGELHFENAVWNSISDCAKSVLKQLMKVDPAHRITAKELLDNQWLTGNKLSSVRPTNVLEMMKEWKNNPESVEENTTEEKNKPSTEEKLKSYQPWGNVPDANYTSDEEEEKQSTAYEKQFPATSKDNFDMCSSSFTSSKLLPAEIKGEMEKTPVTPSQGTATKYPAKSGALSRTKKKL

# Set 1
# Species: mouse
# Medium: microsomes or S9
# Concentration: 2 µM
# Time: 0.5 h
SMILES,remaining compound
Cc1nc(CCNCc2csc(-c3ncccn3)n2)cs1,42.2%
O=C(c1ccccc1)c1ccccc1C(=O)N1Cc2ccccc2C(C(=O)O)C1 (stereo not shown),92.4%
Cc1ccc(NC(=O)N2Cc3c(sc4c3CCCC4)-n3cccc3C2c2cccs2)cc1Cl (stereo not shown),46.6%
CC(C)(C)OC(=O)N[C@@H](CC(=O)N1CCCCCN1C(=O)C[C@@H](Cc1cc(F)c(F)cc1F)NC(=O)OC(C)(C)C)Cc1cc(F)c(F)cc1F,< 1%

# Set 2
# SMILES: C=CCc1ccc(O)c(-c2ccc(O)c(CC=C)c2)c1
# Effect on: chloride current
# Technique: whole-cell voltage clamp
target,action,concentration,notes,added,IC50 [µM]
"Anoctamin-1 (ANO1, Homo sapiens, UniProt Q5XXA6, del476-501/R631K)",inhibitor,,R605K mutant at -80 mV,,15.6
"Anoctamin-1 (ANO1, Homo sapiens, UniProt Q5XXA6, del476-501/R631I)",inhibitor,,R605I mutant at -80 mV,,25.4
"Anoctamin-1 (ANO1, Homo sapiens, UniProt Q5XXA6, del476-501/F803Y)",inhibitor,20 mV holding voltage,,,10.6
"Anoctamin-1 (ANO1, Homo sapiens, UniProt Q5XXA6, del476-501)",,,membrane voltage -80 mV,300 nM Ca2+,3.01
"Anoctamin-1 (ANO1, Homo sapiens, UniProt Q5XXA6, del476-501/L548A)",,,membrane voltage 80 mV,,6.35
"Anoctamin-1 (ANO1, Homo sapiens, UniProt Q5XXA6, del476-501/F807I)",inhibitor,,F781I mutant at 60 mV,,6.38
"Anoctamin-1 (ANO1, Homo sapiens, UniProt Q5XXA6, del476-501/E650A)",,,membrane voltage 60 mV,,3.61

# Set 3
# Compound: O=C(NS(=O)(=O)c1ccc(NCC2CCOCC2)c([N+](=O)[O-])c1)c1ccc(N2CCN(Cc3ccc(C(F)(F)F)cc3-c3ccc(Cl)cc3)CC2)cc1Oc1cnc2[nH]ccc2c1
# Effect on: cell-free assay
# Technique: competition with immobilised ligand
# Concentration: 1 µM
target,remaining binding [%]
"TSSK3 (Homo sapiens, UniProt Q96PN8)",79
"BTK (Homo sapiens, UniProt Q06187)",100
"IRAK4 (Homo sapiens, UniProt Q9NWZ3)",85
"CDK3 (Homo sapiens, UniProt Q00526)",100
"Tyrosine-protein kinase ABL1, phosphorylated (ABL1, Homo sapiens, UniProt P00519, T315I)",100
"STK33 (Homo sapiens, UniProt Q9BYT3)",100
"PAK6 (Homo sapiens, UniProt Q9NQU5)",73
"RET (Homo sapiens, UniProt P07949)",96
"EPHA6 (Homo sapiens, UniProt Q9UF33)",100
"MARK2 (Homo sapiens, UniProt Q7KZI7)",100
"MAPK15 (Homo sapiens, UniProt Q8TD08)",94

# Set 4
# Organism: Sarcocystis neurona
# Effect on: parasite activity
# Concentration: 10 µM
# Time: 96 h
SMILES,activity class
COCCCC/C(=N\OCCN)c1ccc(C(F)(F)F)cc1,inactive
CCc1c(C)[nH]c2c1C(=O)C(CN1CCOCC1)CC2 (stereo not shown),inactive
CC(CCc1ccccc1)NCC(O)c1ccc(O)c(C(N)=O)c1 (stereo not shown),inactive
CN1CCN(CCCN2c3ccccc3Sc3ccc(C(F)(F)F)cc32)CC1,inactive
CCCCc1nc(Cl)c(CO)n1Cc1ccc(-c2ccccc2-c2nn[nH]n2)cc1,inactive
COc1ccccc1OCCNCC(O)COc1cccc2[nH]c3ccccc3c12 (stereo not shown),inactive

# A few entries again (set 3):
target,remaining binding [%]
"TSSK3 (Homo sapiens, UniProt Q96PN8)",79
"EPHA6 (Homo sapiens, UniProt Q9UF33)",100
"PAK6 (Homo sapiens, UniProt Q9NQU5)",73
"BTK (Homo sapiens, UniProt Q06187)",100
